Experimental data collected from several papers.
A part holds a random share of what one study measured.

Set 1 — technique: protein binding microarray; form: double-stranded DNA, one strand shown; sample: in vitro; concentration: not given; reference: not given; direction: higher = stronger binding
Target: Histone acetyltransferase KAT6A, winged helix 1, GST fusion (KAT6A, Homo sapiens, UniProt Q92794, residues 1-85)
Setting: 8-mer, flanks averaged, mean of 2 arrays, mostly near background
Target sequence (chain): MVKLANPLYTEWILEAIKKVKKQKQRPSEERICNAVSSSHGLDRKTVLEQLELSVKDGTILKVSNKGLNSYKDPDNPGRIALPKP
| Strand | E-score |
| --- | --- |
| ATCCTTCC | -0.0812 |
| CTTAAGGC | -0.00451 |
| GGAGGGTA | -0.0107 |
| GAGCTCGA | -0.0737 |
| ACGTTACG | 0.0655 |
| CAGACGCG | 0.311 |
| AATGACCA | -0.187 |
| AGACCTGA | -0.234 |
| TATGGTGA | -0.0642 |
| AGAGGCAC | -0.08 |
| AGCATACC | -0.116 |
| GGAAGACA | -0.122 |
| CGGGAACG | 0.421 |

Set 2 — technique: protein-binding microarray; form: double-stranded DNA, one strand shown; sample: in vitro; concentration: 2540 nM top; setting: 60-bp whole probe; added: salmon DNA 0.4 mg/ml; reference: random background probes; direction: higher = stronger binding; constant ends, left off below: GCCTAGCAC … GTCTTGATTCGCTTGACGCTGCTG
Target: Interferon regulatory factor 3, full length, phosphomimetic (IRF3, Homo sapiens, UniProt Q14653, residues 1-427, S386D/S396D/S398D/S402D/T404D/S405D)
Target sequence (chain): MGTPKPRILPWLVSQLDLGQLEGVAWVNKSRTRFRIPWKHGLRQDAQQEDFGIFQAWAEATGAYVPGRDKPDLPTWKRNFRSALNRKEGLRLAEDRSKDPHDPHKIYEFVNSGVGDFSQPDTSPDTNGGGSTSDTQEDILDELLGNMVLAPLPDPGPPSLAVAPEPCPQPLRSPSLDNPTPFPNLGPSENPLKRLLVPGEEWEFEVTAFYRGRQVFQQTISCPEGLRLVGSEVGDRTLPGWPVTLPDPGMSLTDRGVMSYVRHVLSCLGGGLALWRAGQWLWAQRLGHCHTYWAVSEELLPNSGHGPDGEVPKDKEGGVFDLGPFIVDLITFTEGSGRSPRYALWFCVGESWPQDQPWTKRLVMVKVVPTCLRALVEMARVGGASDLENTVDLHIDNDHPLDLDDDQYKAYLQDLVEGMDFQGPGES
| Strand | fitted relative affinity |
| --- | --- |
| TTAGGACTGCTGCTGCTTTAGTGCTAG | -0.942 z-score |
| GACGGAATCCTTCTCCTGACGTGCTAG | 3.43 z-score |
| GACGATTTCGGGACTGGAGGCGTGCTA | 1.85 z-score |
| TCAGGTCTCGGTTTCGGTTAGTGCTAG | 5.5 z-score |
| GACGGCTCCCTTTTCCTGACGTGCTAG | 2.76 z-score |
| TAAGATATCGGGTATCGATTAGTGCTA | 0.395 z-score |
| TCAGTGCTCATTTTTTTACTGTGCTAG | 0.133 z-score |

Set 3 — technique: RNAcompete; form: RNA; sample: in vitro; concentration: 20 nM; setting: 7-mer, probes averaged, single round; reference: mean of 7-mers; direction: higher = stronger binding
Target: PABPC1L2, full length, GST fusion (mouse, UniProt A0ABA7IW68)
| Strand | 7-mer Z-score |
| --- | --- |
| GGUAAGU | -0.0808 |
| CUCCCUU | -0.329 |
| UCAUCUA | -0.204 |
| ACUCAAC | -0.05 |
| ACGCCGU | -0.315 |
| AAUACUU | 0.144 |
| UCCUUCU | -0.378 |
| UCUUGAC | -0.421 |
| CCGGUAA | 0.151 |
| UGAACAG | -0.0228 |
| GAGCGAA | 0.294 |
| GAGGUAU | -0.106 |
| CCGUACU | -0.454 |
| UUGGAAA | 0.798 |
| CGAUUGG | -0.0699 |
| GCAGCAG | 0.131 |

Mixed results
| Substance | target | test | system | conditions | how to read | endpoint | result |
| --- | --- | --- | --- | --- | --- | --- | --- |
| PhoQ, residues 284 288 289 292 302 303 TASMAF | PhoP, residues 12 14 15 18 19 NHFRA (Escherichia coli, UniProt P23836) | Sort-seq, measured: YFP reporter | E. coli | PhoQ-PhoP variant library, added: 10 µM Mg2+ | reference: high Mg2+ state, higher = stronger signaling | fold induction | 2.17 |
